# Results pooled from the literature.
# Each numbered part is a random draw from the data of one study; scales do not carry over between parts.

# Series 1
# Target: RNA binding protein fox-1 homolog 2, RRM domain, GST-SBP tag (RBFOX2, Homo sapiens, UniProt O43251-10, residues 100-194)
# Technique: RNA Bind-n-Seq
# Form: RNA
# Sample: in vitro
# Tested at: 365 nM
# Setting: natural RNA segment, single round, ends assumed
# Relative to: no-protein control
# Direction: higher = stronger binding
# Residues (chain): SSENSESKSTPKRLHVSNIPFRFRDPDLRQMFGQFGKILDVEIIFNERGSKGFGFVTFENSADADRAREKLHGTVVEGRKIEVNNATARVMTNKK
Sequence,RBNS enrichment (R)
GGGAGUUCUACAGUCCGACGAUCAGCUCCAGGUCCUGACCAGUUUGCACACACACUCUGGAGCUGUAUCUGGCGCUUUUUCUAUCGUCUCUGCUAUGUCACUGAAUUAACCACUGUACGUGGCAGAGGUGGCAUGGAAUUCUCGGGUGCCAA,0.505
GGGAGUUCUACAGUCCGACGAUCUUAAAGAUAAUGCUUUUUAUUUACACGAAUAUAUCAAGUAGUACCCUCCUAUUGUAUUCACUUCUUCUAUUUUCUUAGAAUUCUUGCAACUAAUGAUUGUUCCCCUCCUUUGGAAUUCUCGGGUGCCAA,0.577
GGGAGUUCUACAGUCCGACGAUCAAAUUUCUCAUUACUGGGUUAGAAAACAAAGAGGGAUUGCCCUGCACAUUUUCUUUUGUGCUUUUAAAUGUUUCUUAAGUUGGAACAGGUUUCCUCGGGCCUGUUUUGACUGGAAUUCUCGGGUGCCAA,0.59
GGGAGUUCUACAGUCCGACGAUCCUGGAAAAUGUGAAAGCAUAUUUAGAUUUUAUAUACUAUCUGAAAUGUGAUUUGUUAAGAUUCUUAAAUUUGGGCCUCUUAGAAUAAUUUUGAAUGAGAUCUACCGACUCUGGAAUUCUCGGGUGCCAA,0.394
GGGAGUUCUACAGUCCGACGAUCAGUAGAUGUGGGUUUAUGACUGCCAAGUUUGCCCAGUACAGUAGUUUUUUAUCACUAAAAGUUGGACUCAUUGAUGGAGUCCUGUAGUAGUUUCAGUGUUAGAUACAGUUUGGAAUUCUCGGGUGCCAA,0.478
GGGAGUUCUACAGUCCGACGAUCAGGGGCUCUGCUGAAGUGGCCUUCCACUGGAGUCUUGUUCUCAACAGUCCCUUGUGCCAGGUCAGCUAGCAUGGUGGCCUCCUGCAGAGGACUUGGUUUCUCAUCCACUUUGGAAUUCUCGGGUGCCAA,0.814
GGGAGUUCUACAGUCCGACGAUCCUCUGCCGCCACUGUUUUCAUUGUUGUGUUCUCGUUGUGAUUGUUAAGACUCACACUCCUGGCUCAGCAGUGGUUUUCCAGAAGGCCCAAAGAGCGGUGCCGGGCACCCCUGGAAUUCUCGGGUGCCAA,0.24

# Series 2
# Target: Interferon regulatory factor 5, full length, phosphomimetic (IRF5, Homo sapiens, UniProt Q13568-2, residues 1-514, K96S/S451D/S453D/S456D/S462D)
# Technique: protein-binding microarray
# Form: double-stranded DNA, one strand shown
# Sample: in vitro
# Tested at: 250 nM
# Setting: 60-bp whole probe
# Together with: salmon DNA 0.4 mg/ml
# Relative to: random background probes
# Direction: higher = stronger binding
# Shared flanks, not repeated: GCCTAGCAC … GTCTTGATTCGCTTGACGCTGCTG
Sequence,log fluorescence [z-score]
GACGGTATCGACCATCGGGACGTGCTA,1.71
GACGAACTGAGTCTCCAGACGTGCTAG,-0.311
TTTTTTCTACTTCTGTTTTTGTGCTAG,2.96
GACGATTTCAGTCTCGAGAGGTGCTAG,1.09
GACGGTTACGGTTCCGGGACGTGCTAG,0.352
TTAGGTATCGGACTGGGTTGGTGCTAG,1.49

# Series 3
# Target: Prothrombin, mature alpha-thrombin (F2, Homo sapiens, UniProt P00734)
# Technique: aptamer microarray, sandwich
# Form: DNA with 2'F-ANA
# Sample: in vitro
# Tested at: 200 nM
# Setting: whole 15-mer aptamer, many near background
# Together with: Cy3 exosite-II aptamer, 400 nM
# Direction: higher = stronger binding
# Sequence: GGTTGGTGTGGTTGG
Modification,mean fluorescence intensity [a.u.]
2'F-ANA at 8 9 14 15,191
2'F-ANA at 1 2 3 6 7 9 12 13 14 15,82.5
2'F-ANA at 1 5 12 13 14 15,47.3
2'F-ANA at 2 4 7 12,731
2'F-ANA at 1 4 5 7 10 11 12 13 15,47.4
2'F-ANA at 2 4 5 7 12 14 15,55.1
2'F-ANA at 1 8 11 12 14 15,70.8

# Single results of other studies
Substance,target,assay,test system,conditions,scale,quantity,result
"PhoQ, residues 284 288 289 292 302 303 DDMDFR","PhoP, residues 12 14 15 18 19 SMASL (Escherichia coli, UniProt P23836)","Sort-seq, measured: YFP reporter",E. coli,"PhoQ-PhoP variant library, together with: 10 µM Mg2+","relative to: high Mg2+ state, higher = stronger signaling",fold induction,0.784
